{"data": "Experimental data gathered from unrelated publications", "DPP9": "Dipeptidyl peptidase 9 (DPP9, Homo sapiens, UniProt Q86TI2)", "IL1RL2": "Interleukin-1 receptor-like 2 (IL1RL2, Homo sapiens, UniProt Q9HB29)", "note": "Compare with care: the assays were run in different laboratories. Values joined by “and” are separate records of one study, mostly repeats; a detail may differ.", "UniProt Q86TI2, sequence (whole entry, looked up)": "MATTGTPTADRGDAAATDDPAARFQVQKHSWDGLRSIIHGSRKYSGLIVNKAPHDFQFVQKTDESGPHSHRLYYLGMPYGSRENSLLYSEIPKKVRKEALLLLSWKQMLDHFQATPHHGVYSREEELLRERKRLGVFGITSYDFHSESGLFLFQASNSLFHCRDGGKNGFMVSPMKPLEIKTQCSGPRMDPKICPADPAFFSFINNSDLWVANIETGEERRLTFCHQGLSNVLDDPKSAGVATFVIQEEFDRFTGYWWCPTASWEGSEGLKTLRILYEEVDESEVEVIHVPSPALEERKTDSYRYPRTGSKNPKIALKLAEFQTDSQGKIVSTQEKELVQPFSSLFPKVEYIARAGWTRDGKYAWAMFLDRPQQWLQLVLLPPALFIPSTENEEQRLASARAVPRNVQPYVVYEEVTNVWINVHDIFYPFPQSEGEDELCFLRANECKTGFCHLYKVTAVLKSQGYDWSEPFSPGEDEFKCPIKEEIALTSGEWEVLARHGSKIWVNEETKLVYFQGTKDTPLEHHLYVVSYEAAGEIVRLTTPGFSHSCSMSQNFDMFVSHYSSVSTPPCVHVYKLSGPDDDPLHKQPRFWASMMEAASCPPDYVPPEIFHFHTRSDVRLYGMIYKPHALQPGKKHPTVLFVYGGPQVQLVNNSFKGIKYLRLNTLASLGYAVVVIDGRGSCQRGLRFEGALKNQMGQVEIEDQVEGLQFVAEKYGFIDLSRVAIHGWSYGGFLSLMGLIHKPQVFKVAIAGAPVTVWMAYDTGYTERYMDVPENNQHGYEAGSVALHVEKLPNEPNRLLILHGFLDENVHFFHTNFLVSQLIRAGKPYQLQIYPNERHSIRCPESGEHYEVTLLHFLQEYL", "UniProt Q9HB29, sequence (whole entry, looked up)": "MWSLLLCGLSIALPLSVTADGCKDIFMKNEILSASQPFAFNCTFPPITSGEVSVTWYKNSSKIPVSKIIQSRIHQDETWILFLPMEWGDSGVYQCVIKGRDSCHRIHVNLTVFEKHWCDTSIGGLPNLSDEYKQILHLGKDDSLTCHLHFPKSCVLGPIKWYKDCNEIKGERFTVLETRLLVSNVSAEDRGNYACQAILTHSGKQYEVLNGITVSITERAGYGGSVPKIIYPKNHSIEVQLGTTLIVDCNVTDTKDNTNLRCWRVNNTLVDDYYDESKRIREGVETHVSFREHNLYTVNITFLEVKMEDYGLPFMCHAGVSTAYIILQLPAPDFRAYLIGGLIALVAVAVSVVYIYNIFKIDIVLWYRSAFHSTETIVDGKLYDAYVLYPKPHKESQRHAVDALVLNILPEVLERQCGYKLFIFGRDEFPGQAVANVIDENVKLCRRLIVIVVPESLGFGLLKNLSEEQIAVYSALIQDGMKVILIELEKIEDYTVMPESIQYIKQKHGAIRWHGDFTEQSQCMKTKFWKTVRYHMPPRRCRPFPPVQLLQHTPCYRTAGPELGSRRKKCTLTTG", "UniProt Q9UK32, sequence (whole entry, looked up)": "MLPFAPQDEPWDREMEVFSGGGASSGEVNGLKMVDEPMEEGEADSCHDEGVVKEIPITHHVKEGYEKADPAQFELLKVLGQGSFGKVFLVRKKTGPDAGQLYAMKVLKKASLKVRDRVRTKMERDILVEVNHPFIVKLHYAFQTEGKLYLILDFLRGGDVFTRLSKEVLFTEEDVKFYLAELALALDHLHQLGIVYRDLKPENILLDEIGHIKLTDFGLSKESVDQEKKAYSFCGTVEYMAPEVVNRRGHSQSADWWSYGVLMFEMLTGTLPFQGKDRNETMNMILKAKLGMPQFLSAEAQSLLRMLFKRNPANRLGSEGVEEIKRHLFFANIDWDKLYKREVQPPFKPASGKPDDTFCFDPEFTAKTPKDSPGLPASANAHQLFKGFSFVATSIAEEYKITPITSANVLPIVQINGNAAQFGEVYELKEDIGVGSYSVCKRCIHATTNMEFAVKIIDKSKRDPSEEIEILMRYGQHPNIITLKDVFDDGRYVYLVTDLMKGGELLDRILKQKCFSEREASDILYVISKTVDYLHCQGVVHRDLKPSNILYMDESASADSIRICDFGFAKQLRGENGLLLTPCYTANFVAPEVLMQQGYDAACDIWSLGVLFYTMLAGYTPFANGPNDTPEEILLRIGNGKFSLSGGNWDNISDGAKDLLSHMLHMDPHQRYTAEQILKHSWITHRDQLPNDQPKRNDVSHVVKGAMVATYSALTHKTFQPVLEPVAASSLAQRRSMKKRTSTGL", "UniProt Q16539, sequence (whole entry, looked up)": "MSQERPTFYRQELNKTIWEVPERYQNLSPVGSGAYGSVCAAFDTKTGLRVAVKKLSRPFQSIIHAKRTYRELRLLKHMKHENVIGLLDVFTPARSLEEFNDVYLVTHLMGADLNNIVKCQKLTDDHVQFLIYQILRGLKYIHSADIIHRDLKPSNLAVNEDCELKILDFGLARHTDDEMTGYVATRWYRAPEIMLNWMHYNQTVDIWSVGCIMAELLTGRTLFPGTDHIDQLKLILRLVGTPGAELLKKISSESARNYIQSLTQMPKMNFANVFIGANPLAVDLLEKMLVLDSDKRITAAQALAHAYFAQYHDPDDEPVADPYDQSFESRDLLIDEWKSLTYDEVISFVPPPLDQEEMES", "UniProt P54132, sequence (whole entry, looked up)": "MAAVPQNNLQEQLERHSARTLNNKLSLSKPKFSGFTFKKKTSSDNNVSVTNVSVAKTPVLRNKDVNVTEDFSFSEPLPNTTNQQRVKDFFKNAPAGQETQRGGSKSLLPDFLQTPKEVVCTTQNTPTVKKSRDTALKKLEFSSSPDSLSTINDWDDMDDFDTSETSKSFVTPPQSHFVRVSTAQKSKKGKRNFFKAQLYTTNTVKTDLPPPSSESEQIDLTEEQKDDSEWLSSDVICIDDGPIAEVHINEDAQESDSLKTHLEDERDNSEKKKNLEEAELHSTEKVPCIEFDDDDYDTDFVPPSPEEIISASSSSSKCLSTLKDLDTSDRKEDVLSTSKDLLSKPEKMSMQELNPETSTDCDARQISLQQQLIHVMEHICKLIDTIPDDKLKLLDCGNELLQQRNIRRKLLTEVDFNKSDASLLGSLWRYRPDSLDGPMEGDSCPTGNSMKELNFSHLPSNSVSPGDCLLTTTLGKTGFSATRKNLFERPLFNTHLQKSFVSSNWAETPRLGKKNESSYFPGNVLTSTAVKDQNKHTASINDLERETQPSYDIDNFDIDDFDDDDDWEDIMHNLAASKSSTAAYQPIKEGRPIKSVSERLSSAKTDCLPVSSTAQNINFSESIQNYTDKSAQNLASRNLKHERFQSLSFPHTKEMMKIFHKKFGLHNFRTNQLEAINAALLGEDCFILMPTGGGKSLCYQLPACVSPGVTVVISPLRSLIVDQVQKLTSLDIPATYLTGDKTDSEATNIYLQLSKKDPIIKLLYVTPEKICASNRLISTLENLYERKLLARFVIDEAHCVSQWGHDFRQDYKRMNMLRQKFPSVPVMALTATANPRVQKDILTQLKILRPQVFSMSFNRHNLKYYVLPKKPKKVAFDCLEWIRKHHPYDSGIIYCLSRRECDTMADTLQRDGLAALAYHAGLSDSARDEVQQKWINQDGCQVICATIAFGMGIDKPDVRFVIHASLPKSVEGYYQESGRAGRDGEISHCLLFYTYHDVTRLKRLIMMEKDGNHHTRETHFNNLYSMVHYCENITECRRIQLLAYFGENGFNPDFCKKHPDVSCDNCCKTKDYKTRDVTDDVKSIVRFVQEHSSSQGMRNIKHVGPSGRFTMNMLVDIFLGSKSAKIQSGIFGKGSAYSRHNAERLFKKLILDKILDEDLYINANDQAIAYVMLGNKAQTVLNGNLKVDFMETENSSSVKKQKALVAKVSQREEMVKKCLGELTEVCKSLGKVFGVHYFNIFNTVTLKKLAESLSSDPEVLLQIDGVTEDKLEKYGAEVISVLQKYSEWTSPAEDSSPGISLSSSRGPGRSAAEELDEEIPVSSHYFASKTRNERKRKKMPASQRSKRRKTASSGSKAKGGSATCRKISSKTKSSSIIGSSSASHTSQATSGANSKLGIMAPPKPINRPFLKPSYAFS", "UniProt Q02763, sequence (whole entry, looked up)": "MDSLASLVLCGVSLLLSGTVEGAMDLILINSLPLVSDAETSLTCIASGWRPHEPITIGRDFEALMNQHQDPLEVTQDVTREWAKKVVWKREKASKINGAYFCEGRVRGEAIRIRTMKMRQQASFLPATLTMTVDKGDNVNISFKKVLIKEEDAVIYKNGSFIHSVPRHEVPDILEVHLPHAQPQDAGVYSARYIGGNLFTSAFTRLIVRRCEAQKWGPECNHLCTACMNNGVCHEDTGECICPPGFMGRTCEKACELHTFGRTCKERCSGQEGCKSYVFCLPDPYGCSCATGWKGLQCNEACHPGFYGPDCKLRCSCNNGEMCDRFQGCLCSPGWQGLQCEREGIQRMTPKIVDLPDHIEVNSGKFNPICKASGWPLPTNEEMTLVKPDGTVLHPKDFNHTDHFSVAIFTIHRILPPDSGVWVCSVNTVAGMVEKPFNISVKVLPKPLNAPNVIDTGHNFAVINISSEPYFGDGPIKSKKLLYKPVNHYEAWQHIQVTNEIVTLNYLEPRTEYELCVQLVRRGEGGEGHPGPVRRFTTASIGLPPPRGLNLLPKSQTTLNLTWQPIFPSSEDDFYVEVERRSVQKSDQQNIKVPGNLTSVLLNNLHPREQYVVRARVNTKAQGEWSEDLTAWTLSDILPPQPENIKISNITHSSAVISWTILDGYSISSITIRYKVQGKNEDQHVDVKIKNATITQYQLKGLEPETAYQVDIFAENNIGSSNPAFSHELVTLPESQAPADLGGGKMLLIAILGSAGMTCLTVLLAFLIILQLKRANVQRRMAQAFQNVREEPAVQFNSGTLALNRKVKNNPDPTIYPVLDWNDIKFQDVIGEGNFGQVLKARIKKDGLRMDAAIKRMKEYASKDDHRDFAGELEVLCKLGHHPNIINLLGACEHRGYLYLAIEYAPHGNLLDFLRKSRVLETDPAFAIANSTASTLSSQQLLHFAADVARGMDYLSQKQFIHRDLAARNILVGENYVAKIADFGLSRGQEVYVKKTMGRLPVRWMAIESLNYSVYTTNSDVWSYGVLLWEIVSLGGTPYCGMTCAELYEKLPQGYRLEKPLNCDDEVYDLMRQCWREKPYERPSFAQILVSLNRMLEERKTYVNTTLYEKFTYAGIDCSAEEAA"}
{"Structure (SMILES)": "O=C=[N][Ru-4]123([n]4c5ccc(O)cc5c5c6c(c7cc(F)c[n+]1c7c54)C(=O)NC6=O)[S+]1CC[S+]2CC[S+]3CC1 (stereo not drawn)", "tested on": "TEK (Homo sapiens, UniProt Q02763)", "test": "enzyme activity", "conditions": "100 nM, human enzyme, added: 10 µM ATP", "how to read": "reference: untreated", "quantity": "remaining activity", "value": "86%"}
{"Structure (SMILES)": "CCC1(CC)C(=O)N(c2cccc(CN3CCc4cc5c(cc4C3)OCO5)c2)C1=O", "tested on": "DPP9", "test": "enzyme activity, inhibitor", "conditions": "5 µM", "quantity": "remaining activity", "value": "31%"}
{"Structure (SMILES)": "Cc1nn(-c2cccc(N)c2)c(=O)c2cnc(Nc3ccc(N4CCNCC4)cc3)nc12", "tested on": "RPS6KA6 (Homo sapiens, UniProt Q9UK32)", "test": "enzyme activity, inhibitor", "quantity": "IC50", "value": "1080 nM"}
{"Structure (SMILES)": "N#Cc1cnc2sc(C(=O)O)cc2c1N1CCc2[nH]nc(C(=O)N[C@@H](CC(=O)NCCOCCN3CCOCC3)c3cccc(Br)c3)c2C1", "tested on": "IL1RL2", "test": "SEAP reporter gene, antagonist", "system": "HEK-Blue IL-36R cells", "conditions": "33.33 µM, 6 h, added: IL-36β 0.003 ng/mL", "how to read": "reference: untreated", "quantity": "remaining activity", "value": "99.6%"}
{"Structure (SMILES)": "COC(=O)[C@@]1(C)C=C(C(=O)Nc2cccc(C(=O)Nc3ccc(Nc4nccc(-c5cccnc5)n4)c(C)c3)c2)C(=O)CC1", "tested on": "MAPK14 (Homo sapiens, UniProt Q16539)", "test": "kinase activity, inhibitor", "conditions": "1.646 µM, unit not given", "how to read": "reference: no inhibitor", "quantity": "remaining activity", "value": 1.01}
{"Structure (SMILES)": "COc1ccccc1CCN1CNc2c(c(=O)[nH]c(=O)n2-c2cccc(Cl)c2C)C1", "tested on": "P2X purinoceptor 7 (Ailuropoda melanoleuca, UniProt G1M6C4)", "test": "ATP-evoked current, inhibitor, whole-cell patch clamp", "system": "HEK293 transfected", "conditions": "0.03 µM, wild type", "quantity": "remaining activity", "value": "98%"}
{"Structure (SMILES)": "CC(C)[C@@H]1NC(=O)[C@H](Cc2ccccc2)NC(=O)CSC[C@@H](C(N)=O)NC(=O)[C@H](CCC(=O)O)NC(=O)[C@H](CO)NC(=O)[C@H](Cc2c[nH]c3cccc(Cl)c23)NC(=O)[C@H](C2CCCCC2)NC(=O)[C@H](C(C)C)NC(=O)[C@H](Cc2ccc(O)cc2)NC(=O)[C@H](CC(=O)O)NC(=O)[C@H](Cc2c[nH]c3ccccc23)NC(=O)[C@H](Cc2ccc(N)nc2)NC(=O)[C@H](Cc2c[nH]c3ccc(Cl)cc23)NC(=O)[C@H](CCC(=O)O)NC1=O", "tested on": "IL1RL2", "test": "reporter gene (SEAP), inhibitor, HEK-Blue IL-36R reporter", "system": "HEK-Blue IL-36R cells", "conditions": "11.11 µM, 6 h, added: IL-36β 100 ng/mL", "quantity": "remaining activity", "value": "95.4%"}
{"Structure (SMILES)": "C=CC(=O)Nc1cccc(Cn2ncc3cnc(Nc4cnn(CCOC)c4)nc32)c1", "tested on": "ULK3 human", "test": "binding, KINOMEscan", "conditions": "100 nM", "how to read": "lower = stronger binding", "quantity": "percent of control", "value": "77%"}
{"Structure (SMILES)": "CN(Cc1cc(C2CC2)on1)C(=O)c1cccc(-c2ccc3c(c2)CCO3)c1", "tested on": "Acetyl-CoA synthetase (Cryptococcus neoformans, UniProt J9VFT1)", "test": "enzyme activity, inhibitor, coupled pyrophosphate", "conditions": "15.6 µM", "quantity": "remaining activity", "value": "39.1% and 28.4%"}
{"Structure (SMILES)": "COc1ccccc1-c1ccncc1C(=O)Nc1nnc(OCc2ccc(Cl)cc2)s1", "tested on": "RecQ-like DNA helicase BLM, residues 636–1298 (BLM, Homo sapiens, UniProt P54132)", "test": "ATPase activity, ADP-Glo", "conditions": "0.48 µM, 1 h", "quantity": "remaining activity", "value": "94%"}
{"Structure (SMILES)": "COC1CN([C@H]2CC[C@H]([C@@]3(C)Oc4c(Cl)cc(C(=O)NCc5c(SC)cc(C)[nH]c5=O)c(C)c4O3)CC2)C1", "test": "RNA-seq, measured: SLC25A27 mouse homolog", "system": "mouse, HT-1376 xenograft, whole blood", "conditions": "dose not given", "how to read": "reference: vehicle", "quantity": "log2 fold change", "value": 0.0877}
{"Structure (SMILES)": "C=C(NC(=O)c1csc(-c2nc3c(cc2O)-c2nc(cs2)C(=O)NC(C(C)O)C(=O)NC(=C(C)OC)c2nc(cs2)C(=O)NC2c4nc(cs4)C(=O)NC(COC(=O)c4c5c6c(cccc6n4O)COC(=O)C(OC4CC(C)(O)C(N(C)C)C(C)O4)C2OC5)c2nc-3cs2)n1)C(N)=O (stereo not drawn)", "system": "cynomolgus monkey, plasma", "conditions": "intravenous, 9 mg/kg, single dose, infusion", "quantity": "half-life", "value": "5.92 h"}
{"Structure (SMILES)": "CO[C@@H]1[C@@H](OC(=O)c2ccc(C)[nH]2)[C@@H](O)[C@H](Oc2ccc3c(O)c(NC(=O)c4c[nH]c(C(=O)Nc5c(O)c6ccc(O[C@@H]7OC(C)(C)[C@H](OC)[C@@H](OC(=O)c8ccc(C)[nH]8)[C@H]7O)c(C)c6oc5=O)c4C)c(=O)oc3c2C)OC1(C)C", "tested on": "human CMG helicase", "test": "helicase activity", "conditions": "125 µM, added: ATP 0.5 mM", "quantity": "remaining activity", "value": "2%"}
{"Structure (SMILES)": "Cc1ncsc1-c1ccc(C(C)NC(=O)C2CC(O)CN2C(=O)C(NC(=O)CCCCCCCCCCN2CCCC(Nc3ncc(Cl)c(Nc4ccccc4S(=O)(=O)C(C)C)n3)C2)C(C)(C)C)cc1 (stereo not drawn)", "tested on": "22Rv1", "test": "RNA-seq, measured: ZNF563 mRNA", "conditions": "concentration not given", "how to read": "reference: DMSO", "quantity": "log2 fold change", "value": -2.48}
{"Structure (SMILES)": "CCC1(CC)C(=O)N(c2cccc(CN3CCN(C)CC3)c2)C1=O", "tested on": "DPP9", "test": "enzyme activity, inhibitor", "conditions": "5 µM", "quantity": "remaining activity", "value": "90%"}
{"note": "A few entries again:"}
{"Structure (SMILES)": "O=C=[N][Ru-4]123([n]4c5ccc(O)cc5c5c6c(c7cc(F)c[n+]1c7c54)C(=O)NC6=O)[S+]1CC[S+]2CC[S+]3CC1 (stereo not drawn)", "tested on": "TEK (Homo sapiens, UniProt Q02763)", "test": "enzyme activity", "conditions": "100 nM, human enzyme, added: 10 µM ATP", "how to read": "reference: untreated", "quantity": "remaining activity", "value": "86%"}
